Experimental data of several laboratories.
Every numbered part comes from another study and shows a few of its results, in no order.

Set 1 — method: protein binding microarray; molecule type: double-stranded DNA, one strand shown; sample: in vitro; concentration: not given; relative to: not given; direction: higher = stronger binding
Target: Histone acetyltransferase KAT6A, winged helix 1, GST fusion (KAT6A, Homo sapiens, UniProt Q92794, residues 1-85)
Setting: 8-mer, flanks averaged, mean of 2 arrays, mostly near background
Residues (chain): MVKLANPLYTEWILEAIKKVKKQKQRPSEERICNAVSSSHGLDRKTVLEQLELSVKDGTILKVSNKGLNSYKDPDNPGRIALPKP
`CTAAACTA` gave an E-score of -0.1.
`CAATGGCA` has an E-score of -0.079.
`GCTGCCAA` gave an E-score of -0.0604.
`GCCGCCGC` gave an E-score of 0.487.
`AAAGATAG` has an E-score of -0.136.
`GTTGAGAA` has an E-score of -0.018.

Set 2 — method: protein-binding microarray; molecule type: double-stranded DNA, one strand shown; sample: in vitro; concentration: not given; direction: higher = stronger binding
Target: Max-binding protein MNT, bHLH-zipper, MAX partner unstated (MNT, Homo sapiens, UniProt Q99583, residues 220-300)
Setting: k-mer, scored over probes, only values ≥0.25
Target sequence (chain): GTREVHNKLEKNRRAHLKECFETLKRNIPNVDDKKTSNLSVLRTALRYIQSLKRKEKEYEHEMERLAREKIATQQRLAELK
`TACCACGA` gave an E-score of 0.276.
For `CATGCAAA`, the E-score was 0.254.
`CATGTTCA` has an E-score of 0.314.
The E-score of `CGTGCTAG` is reported as 0.396.
`CATGTGAA` gave an E-score of 0.412.

Set 3 — method: universal PBM; molecule type: double-stranded DNA, one strand shown; sample: in vitro; concentration: not given; direction: higher = stronger binding
Target: Sal-like protein 4, full length isoform B (SALL4, Homo sapiens, UniProt Q9UJQ4-2, residues 1-616)
Setting: 8-mer, flanks averaged, mean of replicates
`CAGGAGTC` has an E-score of -0.14.
For `GGGGGCAC`, the E-score was -0.194.
For `GTCGGACA`, the E-score was -0.0787.
The E-score of `GTCGAGCA` is reported as -0.151.
The E-score of `ATTTTCTA` is reported as 0.279.
With `TCGGACCA` the E-score was -0.155.

Further values, each from its own experiment
`PhoQ, residues 284 288 289 292 302 303 MLMVEA` gave a fold induction of 3.54 (PhoP, residues 12 14 15 18 19 LWHVM (Escherichia coli, UniProt P23836); Sort-seq, refers to: YFP reporter; E. coli; PhoQ-PhoP variant library, with: 10 µM Mg2+; relative to: high Mg2+ state, higher = stronger signaling).
